Assay results pooled from the literature.
Compare with care: the assays were run in different laboratories. ± marks the error that the study gave.
TRPM8: Transient receptor potential cation channel subfamily M member 8 (TRPM8, Homo sapiens, UniProt Q7Z2W7)
Sequence of UniProt Q7Z2W7 (whole entry, looked up): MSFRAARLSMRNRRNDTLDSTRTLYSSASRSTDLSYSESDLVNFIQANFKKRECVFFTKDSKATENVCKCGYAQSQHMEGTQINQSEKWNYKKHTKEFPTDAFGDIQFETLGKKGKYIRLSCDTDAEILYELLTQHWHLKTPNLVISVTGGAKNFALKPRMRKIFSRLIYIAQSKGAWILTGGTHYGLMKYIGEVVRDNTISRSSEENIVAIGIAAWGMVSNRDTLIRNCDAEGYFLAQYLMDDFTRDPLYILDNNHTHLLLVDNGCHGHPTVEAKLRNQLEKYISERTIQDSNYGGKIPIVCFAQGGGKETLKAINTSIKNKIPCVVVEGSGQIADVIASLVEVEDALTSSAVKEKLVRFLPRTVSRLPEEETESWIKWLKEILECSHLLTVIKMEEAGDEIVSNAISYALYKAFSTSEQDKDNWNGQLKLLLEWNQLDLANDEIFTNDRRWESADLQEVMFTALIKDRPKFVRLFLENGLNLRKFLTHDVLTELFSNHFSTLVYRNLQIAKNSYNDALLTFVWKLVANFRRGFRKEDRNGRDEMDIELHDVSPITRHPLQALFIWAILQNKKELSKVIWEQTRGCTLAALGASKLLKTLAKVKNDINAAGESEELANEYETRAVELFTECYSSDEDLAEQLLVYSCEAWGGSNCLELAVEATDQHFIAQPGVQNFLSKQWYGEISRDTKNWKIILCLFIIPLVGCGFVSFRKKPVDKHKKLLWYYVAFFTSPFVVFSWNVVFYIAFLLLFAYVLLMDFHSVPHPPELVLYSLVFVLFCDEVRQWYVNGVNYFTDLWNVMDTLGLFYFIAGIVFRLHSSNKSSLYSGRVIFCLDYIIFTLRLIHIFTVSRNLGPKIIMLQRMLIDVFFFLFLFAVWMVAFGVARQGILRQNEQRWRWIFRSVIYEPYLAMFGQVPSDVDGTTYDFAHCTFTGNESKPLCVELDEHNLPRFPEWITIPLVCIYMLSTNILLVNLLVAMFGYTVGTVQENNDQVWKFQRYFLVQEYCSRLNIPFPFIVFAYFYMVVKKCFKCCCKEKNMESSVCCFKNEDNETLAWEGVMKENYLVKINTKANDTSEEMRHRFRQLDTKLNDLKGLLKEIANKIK
Sequence of UniProt Q8N752 (whole entry, looked up): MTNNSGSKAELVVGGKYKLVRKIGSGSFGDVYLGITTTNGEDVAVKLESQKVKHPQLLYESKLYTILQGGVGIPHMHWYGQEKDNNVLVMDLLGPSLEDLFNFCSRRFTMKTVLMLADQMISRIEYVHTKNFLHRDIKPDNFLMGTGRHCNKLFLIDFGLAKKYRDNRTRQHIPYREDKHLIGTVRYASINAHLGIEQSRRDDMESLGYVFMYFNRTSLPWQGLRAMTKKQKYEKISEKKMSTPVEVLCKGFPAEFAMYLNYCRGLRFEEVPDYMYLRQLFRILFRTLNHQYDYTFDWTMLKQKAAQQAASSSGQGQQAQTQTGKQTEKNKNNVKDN
Sequence of UniProt O75460 (whole entry, looked up): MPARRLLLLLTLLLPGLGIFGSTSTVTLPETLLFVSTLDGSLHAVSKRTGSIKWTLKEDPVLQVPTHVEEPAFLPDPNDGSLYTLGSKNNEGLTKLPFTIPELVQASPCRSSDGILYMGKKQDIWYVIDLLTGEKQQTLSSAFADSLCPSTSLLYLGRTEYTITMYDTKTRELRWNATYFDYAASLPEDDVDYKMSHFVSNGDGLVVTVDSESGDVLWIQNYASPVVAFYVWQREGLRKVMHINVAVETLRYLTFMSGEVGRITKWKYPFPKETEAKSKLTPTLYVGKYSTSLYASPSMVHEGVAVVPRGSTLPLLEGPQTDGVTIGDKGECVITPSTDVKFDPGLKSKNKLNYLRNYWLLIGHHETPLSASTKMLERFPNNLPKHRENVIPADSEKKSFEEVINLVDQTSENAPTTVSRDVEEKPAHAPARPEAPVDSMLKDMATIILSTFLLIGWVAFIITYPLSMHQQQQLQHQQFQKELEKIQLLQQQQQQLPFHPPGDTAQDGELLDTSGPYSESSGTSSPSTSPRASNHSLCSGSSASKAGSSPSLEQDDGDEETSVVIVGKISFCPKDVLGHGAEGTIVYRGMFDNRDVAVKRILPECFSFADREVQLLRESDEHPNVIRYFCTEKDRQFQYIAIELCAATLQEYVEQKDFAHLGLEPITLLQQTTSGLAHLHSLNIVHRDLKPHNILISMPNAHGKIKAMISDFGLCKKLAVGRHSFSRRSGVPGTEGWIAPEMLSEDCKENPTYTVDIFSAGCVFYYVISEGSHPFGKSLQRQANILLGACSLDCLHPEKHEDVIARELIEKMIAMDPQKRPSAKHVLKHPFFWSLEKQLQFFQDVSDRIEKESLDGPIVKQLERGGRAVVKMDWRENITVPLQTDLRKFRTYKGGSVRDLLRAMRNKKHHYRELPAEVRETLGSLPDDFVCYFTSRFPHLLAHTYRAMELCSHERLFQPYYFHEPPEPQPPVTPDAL
Sequence of UniProt Q9UEE5 (whole entry, looked up): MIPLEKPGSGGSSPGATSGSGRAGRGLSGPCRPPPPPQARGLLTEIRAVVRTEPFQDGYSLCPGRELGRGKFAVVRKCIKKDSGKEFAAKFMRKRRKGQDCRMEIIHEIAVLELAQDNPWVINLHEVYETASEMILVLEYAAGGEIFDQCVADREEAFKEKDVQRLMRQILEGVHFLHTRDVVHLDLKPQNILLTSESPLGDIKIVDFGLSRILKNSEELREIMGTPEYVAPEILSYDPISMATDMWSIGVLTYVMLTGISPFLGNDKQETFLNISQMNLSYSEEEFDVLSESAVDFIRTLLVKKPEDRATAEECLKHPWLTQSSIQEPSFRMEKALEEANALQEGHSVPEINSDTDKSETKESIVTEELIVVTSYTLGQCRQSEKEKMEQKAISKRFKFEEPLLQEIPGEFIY
Sequence of UniProt Q15418 (whole entry, looked up): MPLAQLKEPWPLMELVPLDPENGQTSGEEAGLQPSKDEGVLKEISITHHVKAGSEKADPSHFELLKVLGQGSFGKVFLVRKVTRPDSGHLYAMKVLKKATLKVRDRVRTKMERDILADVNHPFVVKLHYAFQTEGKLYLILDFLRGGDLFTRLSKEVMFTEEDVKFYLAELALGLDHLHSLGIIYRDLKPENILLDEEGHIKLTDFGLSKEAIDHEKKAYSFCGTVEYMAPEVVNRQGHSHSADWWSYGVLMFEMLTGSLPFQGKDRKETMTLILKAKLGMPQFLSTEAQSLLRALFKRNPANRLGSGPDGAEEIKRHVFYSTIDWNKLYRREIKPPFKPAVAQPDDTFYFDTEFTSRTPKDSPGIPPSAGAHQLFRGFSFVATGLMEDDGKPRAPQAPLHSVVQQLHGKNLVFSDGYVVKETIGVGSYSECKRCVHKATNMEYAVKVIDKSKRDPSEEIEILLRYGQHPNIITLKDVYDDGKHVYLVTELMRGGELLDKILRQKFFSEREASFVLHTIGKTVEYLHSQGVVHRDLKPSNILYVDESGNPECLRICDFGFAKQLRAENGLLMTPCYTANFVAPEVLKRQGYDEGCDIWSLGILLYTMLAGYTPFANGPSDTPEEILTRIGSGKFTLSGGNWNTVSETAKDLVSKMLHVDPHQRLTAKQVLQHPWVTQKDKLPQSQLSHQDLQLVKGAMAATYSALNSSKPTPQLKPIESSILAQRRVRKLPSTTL
Sequence of UniProt P06493 (whole entry, looked up): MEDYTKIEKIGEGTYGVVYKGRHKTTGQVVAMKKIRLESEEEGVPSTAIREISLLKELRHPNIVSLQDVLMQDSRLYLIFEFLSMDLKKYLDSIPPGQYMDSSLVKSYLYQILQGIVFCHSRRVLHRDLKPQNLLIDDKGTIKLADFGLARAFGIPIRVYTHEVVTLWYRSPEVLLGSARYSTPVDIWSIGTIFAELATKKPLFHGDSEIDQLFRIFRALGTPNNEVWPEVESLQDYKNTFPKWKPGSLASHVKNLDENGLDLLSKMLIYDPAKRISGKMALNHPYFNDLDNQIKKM

C=CC(=O)N1CCC[C@@H](n2nc(-c3ccc(Oc4ccccc4)cc3)c3c(N)ncnc32)C1 gave a remaining activity of 137% (CSNK1A1L (Homo sapiens, UniProt Q8N752); 1 µM).
The remaining activity of Nc1nc(Nc2ccc(S(N)(=O)=O)cc2)nn1C(=S)Nc1c(F)cccc1F is reported as 92 ± 12.9% (TRPM8; antagonist; HEK293; 5 µM; reference: control).
COc1cc(Nc2ncc3c(n2)-c2ccc(Cl)cc2C(c2c(F)cccc2OC)=NC3)ccc1C(=O)O has a remaining activity of 105% (RAF1; kinase activity; 1 µM).
CNc1ncc2c(/C=C/C(=O)N3CCC(OC)CC3)nn(Cc3cccc(C(F)(F)F)c3)c2n1 has a remaining activity of 97% (RPS6KA1 (Homo sapiens, UniProt Q15418); kinase activity, inhibitor; 1 µM; reference: untreated control).
For CCN(CC)C(=O)c1ccc(Nc2nc(OCC3CCCCC3)c3[nH]cnc3n2)cc1, the remaining activity was 99.7 ± 10.4% (TRPM8; antagonist; HEK293; 5 µM; reference: control).
For Cc1cc(Nc2cc(N3CCN(C)CC3)nc(Sc3ccc(NC(=O)C4CC4)cc3)n2)[nH]n1, the remaining activity was 98% (Cyclin-dependent kinase 1, with cyclin B (CDK1, Homo sapiens, UniProt P06493); kinase activity, KinaseProfiler; 0.03 µM, species human; reference: control).
For COc1cc(-c2cncc3c2CN(C)Cc2cc(N4CCNCC4)ccc2-3)cc(OC)c1OC, the remaining activity was 100% (ERN1 (Homo sapiens, UniProt O75460); kinase activity; 1 µM, human enzyme, with: ATP 10 µM; reference: DMSO control).
Cc1cc(Nc2nc(-c3ccccc3)nc3ccccc23)n[nH]1 gave a remaining activity of 102 ± 2% (TRPM8; antagonist; HEK293; 5 µM; reference: control).
For O=C(NC1CCC1)c1ccc2nc(-c3cccc(NS(=O)(=O)NCCN4CCCCC4)c3)cn2c1, the remaining activity was 100% (FLT3 (Homo sapiens, UniProt P36888, D835H); enzyme activity; 10 µM).
COc1cc(F)ccc1-c1ncnc(Nc2cccc(C[S@](C)(=N)=O)c2)n1 gave a remaining activity of 59% (STK17A (Homo sapiens, UniProt Q9UEE5); kinase activity; 10 µM, with: 10 µM ATP).
COc1ccc(F)cc1C(=O)NCc1ccc(-c2nn([C@@H](C)C(F)(F)F)c(N)c2C(N)=O)cc1 has a remaining activity of 83.2 ± 0.5% (FLT3 (Homo sapiens, UniProt P36888); kinase activity, inhibitor, HotSpot radiometric; 100 nM, with: ATP 10 µM).
With O=C(O)/C=C/c1cc(Br)c(Br)c(Br)c1Br the remaining activity was 112 ± 8.89% (TRPM8; antagonist; HEK293; 5 µM; reference: control).
